# Published values collected from several papers.
# Compare with care: the assays were run in different laboratories. ± marks the error that the study gave.
Substance,target or system,assay,system,setting,how to read,endpoint,value
Pillar[6]MaxQ,,"host-guest binding, isothermal titration calorimetry",20 mM sodium phosphate buffer,"pH 7.4, with: fentanyl",,Kd,9.8 nM
gymnodimine A,nicotinic acetylcholine receptor (Torpedo marmorata),binding,,"methanol standard, with: biotin-α-bungarotoxin 80 nM",,IC50,74.2 ± 10.8 nM
COc1cccc(C(=O)N2CCN(C(=O)COc3cccc(C)c3)CC2)c1OC,PC-3,"qPCR, refers to: INK4A/ARF",,"500 µM, 12 h",reference: DMSO,mRNA level increase,~60%
C[C@H](NP(=O)(Nc1ccn([C@H]2CS[C@@H](COP(=O)(N[C@@H](C)C(=O)OCc3ccccc3)N[C@@H](C)C(=O)OCc3ccccc3)O2)c(=O)n1)N[C@@H](C)C(=O)OCc1ccccc1)C(=O)OCc1ccccc1,Caco-2,cell proliferation,,3 d,,IC50,> 250000 nM
pinnatoxin G,nicotinic acetylcholine receptor (Torpedo marmorata),binding,,with: biotin-α-bungarotoxin,,Hill slope,0.65 ± 0.1
NC12CC3CC(CC(C3)C1)C2,Influenza A virus,"viral replication, plaque size reduction","MDCK, A/Swine/Indiana/24-0218/2010 (H1N2)",,,EC50,> 100 µM
20-methyl spirolide G,nicotinic acetylcholine receptor (Torpedo marmorata),binding,,"methanol standard, with: biotin-α-bungarotoxin 80 nM",,IC50,25.6 ± 10.8 nM
CN1CC[C@]23c4c5ccc(O)c4O[C@H]2[C@@H](O)C=C[C@H]3[C@H]1C5,,"antinociception, hot plate at 52 °C",C57BL/6J male mice,subcutaneous,,ED50,10.2 mg/kg
pinnatoxin A,nicotinic acetylcholine receptor (Torpedo marmorata),binding,,"methanol standard, with: biotin-α-bungarotoxin 80 nM",,IC50,75.8 ± 7.09 nM
C#CC(=O)Nc1ccc([As]2SCCS2)cc1,HCT-116,"cell viability, MTS",,,,IC50,530 ± 200 nM
13-desmethyl spirolide C,nicotinic acetylcholine receptor (Torpedo marmorata),binding,,with: biotin-α-bungarotoxin,,Hill slope,1.09 ± 0.14
CSCC[C@@H]1NC(=O)[C@H](CC(C)C)NC(=O)[C@H](CCCNC(=N)N)NC(=O)[C@H](CO)NC(=O)[C@@H]2CSSC[C@@H]3NC(=O)[C@H](CO)NC(=O)CNC(=O)[C@H]([C@@H](C)O)NC(=O)[C@H](CSSC[C@H](N)C(=O)N[C@@H](CCCCN)C(=O)NCC(=O)N[C@@H](CCCCN)C(=O)NCC(=O)N[C@@H](C)C(=O)N[C@@H](CCCCN)C(=O)N2)NC(=O)[C@H](CSSC[C@@H](C(N)=O)NC(=O)[C@H](CCCCN)NC(=O)CNC(=O)[C@H](CO)NC(=O)[C@H](CCCNC(=N)N)NC3=O)NC(=O)[C@H](CC(=O)O)NC(=O)[C@H](Cc2ccc(O)cc2)NC1=O,Candida kefyr,,,,,MIC,28.8 µM
Nc1ccc([As]2SCCS2)cc1,DLD-1,"cell viability, MTS",,,,IC50,6900 ± 1810 nM
Nc1ncnc2c1ncn2[C@@H]1O[C@H](COP(=O)(O)OP(=O)(O)OP(=O)(O)O)[C@@H](O)[C@H]1O,"nicotinamide mononucleotide adenylyltransferase R133A, His-tagged",substrate,,,reference: R133A over wild type,K0.5 increase,4 fold
AEOL 10150,,HPLC-electrochemical,"rat, status epilepticus model, plasma","sc, 7 mg/kg every 4 h, 24 h, dosing from 15 min after SE",,cystine level,decreased
Cc1cc(/C=C/C#N)cc(C)c1Oc1nc(NC2CCN(Cc3ccc(P(C)(C)=O)cc3)CC2)nc2ccsc12,HIV-1,,"MT-4, K103N",,reference: doravirine EC50 over cpd EC50,EC50 fold change,~10.9 fold
C[C@H](NP(=O)(Nc1ccn([C@H]2CS[C@@H](CO)O2)c(=O)n1)N[C@@H](C)C(=O)OCc1ccccc1)C(=O)OCc1ccccc1,CEM/TK−,cell proliferation,,72 h,,IC50,139000 ± 67000 nM
O=C([O-])c1ccc[n+]([C@@H]2O[C@H](COP(=O)(O)O)[C@@H](O)[C@H]2O)c1,"nicotinamide mononucleotide adenylyltransferase R133A, His-tagged",substrate,,,reference: R133A over wild type,kcat decrease,30 fold
